Published values gathered from unrelated publications.
Every numbered part comes from another study and shows a few of its results, in no order.

Series 1 — method: protein-binding microarray; form: double-stranded DNA, one strand shown; medium: in vitro; tested at: 0.8 µM; setting: whole 60-bp probe, no competitor; reading: higher = stronger binding; quantity: fluorescence intensity
Target: Centromere-binding protein 1, full length, N-terminal tag (CBF1, Saccharomyces cerevisiae, UniProt P17106, residues 1-351)
Sequence of UniProt P17106 (whole entry, looked up): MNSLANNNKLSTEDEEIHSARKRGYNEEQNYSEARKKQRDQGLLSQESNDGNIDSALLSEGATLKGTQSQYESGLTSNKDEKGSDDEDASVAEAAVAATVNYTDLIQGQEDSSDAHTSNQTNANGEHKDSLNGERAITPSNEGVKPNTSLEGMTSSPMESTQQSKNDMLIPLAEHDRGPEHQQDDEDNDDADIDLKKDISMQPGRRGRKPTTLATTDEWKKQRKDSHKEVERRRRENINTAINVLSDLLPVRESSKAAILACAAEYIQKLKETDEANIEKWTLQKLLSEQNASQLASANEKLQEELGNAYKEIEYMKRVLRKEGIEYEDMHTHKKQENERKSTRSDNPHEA
CTAAGTAGAATACTACACGTGCAATCGGTAGCATTCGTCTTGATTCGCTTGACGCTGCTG: 3560 a.u.
CTATTAAAGAACGATCAGCTGAAGCTGTGATAATTCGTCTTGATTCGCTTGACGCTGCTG: 531 a.u.
TGTACGAAGCTATTACACATGGCTATAGTAGTTAGGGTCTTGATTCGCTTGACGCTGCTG: 560 a.u.
CCTAACTACTATATGCAGGTGGCATAGCTTCGTACAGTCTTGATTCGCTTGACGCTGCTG: 518 a.u.
GAAAATGATAGACTGATCAGTACATCTTCAATTTAGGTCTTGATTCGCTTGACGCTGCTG: 526 a.u.
GAATTTCTATTCGATCACGAGCTCTACTGCTGGTAGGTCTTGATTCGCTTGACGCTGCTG: 2690 a.u.
GAAGTCATGTGATTTTTTGTCACGTTTTGTTGATAGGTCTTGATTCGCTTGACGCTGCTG: 11800 a.u.

Series 2 — method: protein-binding microarray; form: double-stranded DNA, one strand shown; medium: in vitro; tested at: not given; reading: higher = stronger binding; quantity: E-score
Target: Max-binding protein MNT, bHLH-zipper, MAX partner unstated (MNT, Homo sapiens, UniProt Q99583, residues 220-300)
Setting: k-mer, scored over probes, only values ≥0.25
Residues (chain): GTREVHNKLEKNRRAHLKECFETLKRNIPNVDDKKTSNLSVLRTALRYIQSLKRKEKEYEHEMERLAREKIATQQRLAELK
CGCATGAG: 0.316
ACACGCTC: 0.351
CATGCAAC: 0.348
TACACGCA: 0.304
CAAACCAC: 0.256
GCCCCACC: 0.37

Series 3 — method: protein binding microarray; form: double-stranded DNA, one strand shown; medium: in vitro; tested at: not given; reference: not given; reading: higher = stronger binding; quantity: E-score
Target: Histone acetyltransferase KAT6A, both winged helices, GST fusion (KAT6A, Homo sapiens, UniProt Q92794, residues 1-181)
Setting: 8-mer, flanks averaged, mean of 2 arrays, mostly near background
Target sequence (chain): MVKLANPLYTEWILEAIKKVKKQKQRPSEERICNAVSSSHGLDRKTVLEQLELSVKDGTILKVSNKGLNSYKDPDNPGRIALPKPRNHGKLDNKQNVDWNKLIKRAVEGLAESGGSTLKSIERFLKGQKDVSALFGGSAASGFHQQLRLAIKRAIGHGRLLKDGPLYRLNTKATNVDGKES
CTAGCAGA: -0.238
CTCAGTTC: -0.186
AGCTCCCC: -0.153
AGCCGTTC: 0.165
AACATGTA: 0.0206
ACGTGACA: -0.0406
AGCGGTCA: 0.234

Further values, each from its own experiment
PhoQ, residues 284 288 289 292 302 303 AGGCYF — fold induction (PhoP, residues 12 14 15 18 19 HEGLL (Escherichia coli, UniProt P23836); Sort-seq, measured: YFP reporter; E. coli; PhoQ-PhoP variant library, added: 10 µM Mg2+; reference: high Mg2+ state, higher = stronger signaling): 1.44

Repeated from above (series 3):
ACGTGACA: -0.0406
AGCGGTCA: 0.234
